Measurements gathered from unrelated publications.
Numbers after ± are the reported error. ≈ marks a conversion by molar mass, not a printed value.

Structure (SMILES) | test | test system | conditions | scale | endpoint | value
N=C(N)NCCC[C@@H]1NC(=O)[C@H](Cc2c[nH]c3ccccc23)NC(=O)[C@@H](CC2CCCCC2)NC(=O)[C@@H]2CCCN2C(=O)[C@@H](NC(=O)CCc2ccccc2)CCCNC1=O |  | C57BL/6J mouse, plasma brain | oral, 1 mg/kg single dose |  | MRT(0-inf) | 2.43 h
CCCC[C@@H]1NC(=O)[C@@H](NC(=O)[C@H](CCC(=O)O)NC(=O)CNC(=O)CN2CCN(CC(=O)O)CCN(CC(=O)O)CCN(CC(=O)O)CC2)CCCCNC(=O)C[C@@H](C(N)=O)NC(=O)[C@H](C(C)C)NC(=O)[C@@H]2CCCN2C(=O)[C@H](CCCNC(=N)N)NC(=O)CNC(=O)[C@H](Cc2c[nH]c3ccccc23)NC(=O)[C@H](CCCNC(=N)N)NC(=O)[C@@H](Cc2ccccc2)NC(=O)[C@H](Cc2c[nH]cn2)NC(=O)[C@H](CCC(=O)O)NC1=O [gallium-67 labelled] |  | C57 mice, B16/F1 flank melanoma, tumour | intravenous, 0.037 MBq, 0.5 h |  | tumour uptake | 8.59 ± 1.37 %ID/g
Cc1ccc2oc(-c3c4c(N)n[nH]c(=O)c4nn3-c3ccc(NC(=O)/C=C/CN(C)C)cc3)c(C)c2c1 |  | mouse, plasma | intraperitoneal, 3 mg/kg |  | MRT | 3.14 h
Cc1ccc(OCC(=O)O)cc1 |  | Sprague-Dawley rat, male, plasma | oral gavage, 30 mg/kg of parent drug |  | AUC(0-last) | 14800 ± 3210 ng·h/mL
O=C(Cc1ccccc1)Nc1nc2ccccc2n1Cc1ccccc1 | shake-flask |  | 24 h, pH 7.0, room temperature |  | aqueous solubility | 0.00165 mg/mL (≈ 0.00483 mM)
Cc1ccccc1/N=N/c1ccc(/N=N/c2c(O)ccc3ccccc23)c(C)c1 |  | extracted rat blood QC samples | 0.5 µg/L, 2 h, room temperature, short-term stability |  | measured concentration | 0.497 µg/L
Cn1c(=O)oc2ccc(-c3ccc(CC(C#N)NC(=O)C4CNCCCO4)c(F)c3)cc21 (centres unmarked) | item: macule | human | 15 mg single dose, fasted |  | subjects with TRAE | 0%
CN1CCC(N[C@@H]2CCc3[nH]c4c(C(N)=O)ccc(-c5ccccc5Cl)c4c3C2)CC1 |  | mouse, plasma | intravenous, 2 mg/kg |  | MRT(0-inf) | 9.05 h
CC[C@H](C)[C@H](NC(=O)[C@H](Cc1ccccc1)NC(=O)[C@H](CCCN)NC(=O)[C@H](CCCNC(=N)N)NC(=O)[C@H](Cc1ccccc1)NC(=O)[C@H](Cc1ccccc1)NC(=O)[C@H](CCCCN)NC(=O)[C@H](CO)NC(=O)[C@H](CC(C)C)NC(=O)[C@H](CCCNC(=N)N)NC(=O)[C@H](CCSC)NC(=O)[C@H](C)N)C(=O)N[C@@H](CC(C)C)C(=O)N[C@@H](CCCCN)C(=O)N[C@@H](CCCNC(=N)N)C(=O)N[C@@H](CCCCN)C(=O)N[C@@H](CCCCN)C(=O)O | circular dichroism | 20% TFE in PBS | 200 µM, pH 7.4, 25 °C |  | helicity | 14.4%
COC(=O)C(c1ccccc1Cl)N1CCC(SCC(=O)c2cccc(OC)c2)C(=CC(=O)O)C1 (mixture of isomers) | HPLC-MS/MS | feline citrate plasma | 100 ng/mL, 6 h, -80 °C, storage stability |  | deviation from nominal | 6%
O=C(CCc1ccc(CNC(C(=O)OC2CCCC2)C2CCCCC2)cn1)NO (centres unmarked) |  | healthy male humans | oral, 20 mg once daily, 7 days, median | reference: day 7 over day 1 | accumulation ratio AUC | 1.14
CC(=O)N[C@H](C)c1cc(Cl)ccc1Cn1c(=S)[nH]c(=O)c2[nH]ccc21 |  | dog, both sexes, plasma | oral, 100 mg/kg/day | reference: dog over human 10 mg | exposure ratio | 0.3
CC[C@H](C)[C@@H]1NC(=O)[C@H](Cc2ccccc2)NC(=O)[C@@H](NC(=O)[C@H](CCCNC(=N)N)NC(=O)[C@H](Cc2ccccc2)NC(=O)[C@H](Cc2ccccc2)NC(=O)[C@H](CCCCN)NC(=O)[C@H](CO)NC(=O)[C@H](CC(C)C)NC(=O)[C@H](CCCNC(=N)N)NC(=O)[C@H](CCSC)NC(=O)[C@H](C)N)CNC(=O)NCCCC[C@@H](C(=O)N[C@@H](CCCNC(=N)N)C(=O)N[C@@H](CCCCN)C(=O)N[C@@H](CCCCN)C(=O)O)NC(=O)[C@H](CC(C)C)NC1=O | circular dichroism | 20% TFE in PBS | 200 µM, pH 7.4, 25 °C |  | helicity | 9.9%
O=C([O-])CN1CCN(CC(=O)[O-])CCN(CC(=O)NC[C@H]2CC[C@H](C(=O)N[C@H](Cc3cnc4ccccc4c3)C(=O)NCCCC[C@H](NC(=O)N[C@@H](CCC(=O)O)C(=O)O)C(=O)O)CC2)CCN(CC(=O)[O-])CC1.[64Cu+2] | PET/CT dosimetry OLINDA/EXM | healthy volunteers, lungs | up to 24 h post-injection |  | absorbed dose | 0.011 mGy/MBq
CCCCCCCCCCCCCCCC(=O)N[C@@H](CCCCN)C(=O)N[C@@H](CCCCN)C(=O)N[C@@H](CO)C(=O)N[C@@H](CCCNC(=N)N)C(=O)N[C@@H](C)C(=O)N[C@@H](CC(C)C)C(=O)N[C@@H](Cc1ccccc1)C(N)=O |  | cynomolgus monkey, male | 3 mg/kg, day 5 |  | prothrombin time | 11.7 ± 0.2 s
O=C([O-])CN1CCN(CC(=O)[O-])CCN(CC(=O)NCC2CCC(C(=O)NC(Cc3ccc4ccccc4c3)C(=O)NCCCCC(NC(=O)NC(CCC(=O)O)C(=O)O)C(=O)O)CC2)CCN(CC(=O)[O-])CC1.[44Sc+3] (centres unmarked) | transmetallation stability |  | 0.5 h, 37 °C, added: Fe3+ 10 mM |  | intact complex | 97.3 ± 0.9%
COc1cc(F)c(C(C)C)cc1C1=C(CN2C(=O)O[C@H](c3cc(C(F)(F)F)cc(C(F)(F)F)c3)[C@@H]2C)CC(C)(C)CC1 | non-compartmental analysis | healthy male subjects, plasma | oral, 50 mg single dose |  | Vd/F per body weight | 38.7 L/kg
CN1CCC[C@]1(C)/C=C/S(=O)(=O)NC(=O)Nc1c2c(cc3c1CCC3)CCC2 |  | human, urine | oral, 250 mg single dose |  | amount recovered in urine | 173 mg
[11CH3]Oc1ccc(C(=O)Nc2c(-c3cccs3)nc3ccccn23)cc1 | radio-HPLC | female Landrace × Yorkshire × Duroc pigs, arterial plasma | intravenous, 509 MBq, 5 min |  | parent compound remaining | 50%

Structure (SMILES) | test | test system | conditions | scale | endpoint | value
COc1ccc(/C=C/C2=[N+]3C(=C(CO)c4c(C)cc(/C=C/c5ccc(OC)cc5)n4[B-]3(F)F)C(C)=C2C=O)cc1 |  | DMSO/methanol 1:1 | 1 h, added: 645 nm light, 9.00 J/cm2 |  | photostability | unstable
CCC(=O)N[C@@H](C)C(=O)OCC(=O)N[C@@H](C)C(=O)O |  | water | pH 4, 37 °C |  | depolymerization half-life | 826 h
O=c1c2ccccc2[se]n1CCCCCCn1[se]c2ccccc2c1=O |  | DMSO | 24 h, 25 °C |  | solubility | 20 to 50 mg/mL (≈ 41.8 to 105 mM)
CCN(CC)CC#CCNc1ccnc2cc(Cl)ccc12 |  | mouse hepatocytes | 10 µM, 30 min |  | parent compound remaining | < 15%
CC[C@H](C)[C@H](NC(=O)[C@H](N)Cc1ccc(O)cc1)C(=O)N[C@H]1CSSC[C@@H](C(=O)N(C)[C@H](C(N)=O)[C@@H](C)CC)NC(=O)[C@H](CCCNC(=N)N)NC(=O)[C@H](Cc2c[nH]cn2)NC(=O)[C@H](C)NC(=O)CN(C)C(=O)[C@H](Cc2c[nH]c3ccccc23)NC(=O)[C@H](CC(=O)O)NC(=O)[C@H](CCC(N)=O)NC(=O)[C@H](Cc2cn(C)c3ccccc23)NC(=O)[C@H](C(C)C)NC1=O | UPLC-ESI-MS | human plasma | 3.58 µg/mL, 48 h, 25 °C, bench-top after SPE |  | recovery | 99.7 ± 0.3%
C=Cn1c2ccc([N+](=O)[O-])cc2c(=O)n1Cc1ccccc1 | resazurin | peritoneal macrophages, BALB/c mice | 48 h, 10% FBS |  | CC50 | 5.1 ± 0.2 µM
CCCC[C@H](NC(C)=O)C(=O)N[C@H]1CC(=O)NCCCC[C@@H](C(=O)N[C@@H](C(=O)N2CCC[C@@H]2C(N)=O)C(C)C)NC(=O)[C@H](Cc2c[nH]c3ccccc23)NC(=O)[C@H](CCCN=C(N)N)NC(=O)[C@@H](Cc2ccc3ccccc3c2)NC(=O)[C@@H]2CCCN2C1=O |  | healthy dogs, plasma | 2.25 mg/kg per day, day 5, median |  | plasma phosphorus | 4.7 mg/dL
[2H]C([2H])([2H])NC(=O)c1ccc(N2C(=S)N(c3ccc(C#N)c(C(F)(F)F)c3)C(=O)C2(C)C)cc1F |  | healthy men | oral, 40 mg, 50 days, fasting, soft capsules |  | adverse events | 4 occurrences
C[C@H](NC(=O)[C@H](C)NC(=O)[C@H](CCCNC(=N)N)NC(=O)[C@H](CCCNC(=N)N)NC(=O)[C@H](CCCNC(=N)N)NC(=O)[C@H](C)NC(=O)[C@H](C)NC(=O)[C@H](CCCNC(=N)N)NC(=O)[C@H](CCCNC(=N)N)NC(=O)[C@H](CCCNC(=N)N)NC(=O)[C@H](CCCNC(=N)N)NC(=O)c1ccc2c(c1)C(=O)OC21c2ccc(O)cc2Oc2cc(O)ccc21)C(=O)N[C@@H](CCCNC(=N)N)C(=O)N[C@@H](CCCNC(=N)N)C(=O)N[C@@H](CCCNC(=N)N)C(=O)N[C@@H](C)C(=O)N[C@@H](C)C(=O)N[C@@H](CCCNC(=N)N)C(=O)N[C@@H](CCCNC(=N)N)C(=O)N[C@@H](CCCNC(=N)N)C(=O)N[C@@H](CCCNC(=N)N)C(=O)O |  | bovine, healthy cartilage explants | 30 µM, 24 h, 37 °C, 5-FAM labelled | reference: tissue over bath concentration | cartilage uptake ratio | ~360
CCC/C(=C\C1=C(C(F)(F)F)C(=O)c2ccccc2C1=O)C(=O)N(CC)CC | metabolic stability | human, liver microsomes | 1 µM, pH 7.4 |  | scaled CLint | 36.3 mL/min/kg
[11CH3]n1cc(Cc2ccc(OC(F)F)c(-c3cccc(Cl)c3)n2)cn1 | ultrafiltration | monkey, plasma |  |  | fraction unbound | 1.4%
CC(C)c1cnc(-c2cc(Cl)ccc2F)cc1Nc1ccncc1C(=O)NC(CO)CO | monotherapy, item: fatigue | human patients | oral, dose not given, grade 2, phase I A |  | patients with treatment-related adverse event | 0%
COCCOCCOCCOCCC(=O)NCc1cc(CNC(=O)CCOCCOCCOCCOC)cc(-c2cc3cc4nc(c(-c5ccc(CCC(=O)O)cc5)c5[nH]c(cc6nc(c(OC)c2[nH]3)CC6(C)C)cc5-c2cc(CNC(=O)CCOCCOCCOCCOC)cc(CNC(=O)CCOCCOCCOCCOC)c2)CC4(C)C)c1 |  | water with 5% DMF | room temperature |  | integrated Qy/B absorption ratio | 0.4
NS(=O)(=O)c1ccc(-n2cc(CNc3ccc(F)cc3)c(-c3ccc(OCc4ccccc4)cc3)n2)cc1 |  | rat, gastric mucosa | oral, 60 mg/kg, 17 h | reference: control score subtracted | ulcer severity index | 0.85 ± 0.36
OC1(C(F)(F)F)CCN(c2nc(Nc3ccnc(C(F)(F)F)c3)nc(-c3cccc(C(F)(F)F)n3)n2)C1 (centres unmarked) |  | monkey, blood | oral, 3 mg/kg |  | oral bioavailability | 114%
COc1ccc2cc(-c3ccc(-c4ccc(C)cn4)nc3)oc2c1 | TCSPC | MeCN |  |  | fluorescence lifetime | 1.84 ns
NC(=O)/C=C/c1cccc(S(=O)(=O)Nc2ccccc2)c1 |  | human, moderate liver dysfunction, plasma | intravenous, 400 mg/m^2 belinostat, cycle 1 day -7, geometric mean | reference: metabolite over belinostat | Cmax metabolic ratio | 0.0768
CC(C)(Sc1cc[n+]([O-])cc1-c1ccc(C#N)c2ccccc12)C(=O)OC1OC(C(=O)O)C(O)C(O)C1O (centres unmarked) |  | adult men, plasma | oral, 15 mg verinurad, severe renal impairment | reference: normal renal function | AUC(0-inf) increase | 527%
COC(=O)C(Cc1c[nH]cn1)NC(=O)C1(C)C(O)CCC2(C)C1CCC1(C)C2CC=C2C3C(C)C(C)CCC3(C)CCC21C (centres unmarked) |  | Wistar rat colon homogenate | 90 µg/mL, 12 h, 37 °C |  | prodrug hydrolysed | 78.1%

Some of these lines once more:
Structure (SMILES) | test | test system | conditions | scale | endpoint | value
COc1cc(F)c(C(C)C)cc1C1=C(CN2C(=O)O[C@H](c3cc(C(F)(F)F)cc(C(F)(F)F)c3)[C@@H]2C)CC(C)(C)CC1 | non-compartmental analysis | healthy male subjects, plasma | oral, 50 mg single dose |  | Vd/F per body weight | 38.7 L/kg
CN1CCC[C@]1(C)/C=C/S(=O)(=O)NC(=O)Nc1c2c(cc3c1CCC3)CCC2 |  | human, urine | oral, 250 mg single dose |  | amount recovered in urine | 173 mg
[11CH3]Oc1ccc(C(=O)Nc2c(-c3cccs3)nc3ccccn23)cc1 | radio-HPLC | female Landrace × Yorkshire × Duroc pigs, arterial plasma | intravenous, 509 MBq, 5 min |  | parent compound remaining | 50%
COc1ccc(/C=C/C2=[N+]3C(=C(CO)c4c(C)cc(/C=C/c5ccc(OC)cc5)n4[B-]3(F)F)C(C)=C2C=O)cc1 |  | DMSO/methanol 1:1 | 1 h, added: 645 nm light, 9.00 J/cm2 |  | photostability | unstable
CCC(=O)N[C@@H](C)C(=O)OCC(=O)N[C@@H](C)C(=O)O |  | water | pH 4, 37 °C |  | depolymerization half-life | 826 h
